Measured values from different studies.
Lines come from different studies, so protocols differ. “And” joins repeats or separate records; there may be more than shown. Numbers after ± are the reported error.
MC1R: Melanocyte-stimulating hormone receptor (MC1R, Homo sapiens, UniProt Q01726)
Sigmar1: Sigma non-opioid intracellular receptor 1 (Sigmar1, Rattus norvegicus, UniProt Q9R0C9)
Cnr1: Cannabinoid receptor 1 (Cnr1, Mus musculus, UniProt P47746)
NPY5R: Neuropeptide Y receptor type 5 (NPY5R, Homo sapiens, UniProt Q15761)
ache: Acetylcholinesterase (ache, Electrophorus electricus, UniProt O42275)
Oprk1: Kappa-type opioid receptor (Oprk1, Rattus norvegicus, UniProt P34975)
ampC: Beta-lactamase (ampC, Escherichia coli K-12, UniProt P00811)

The Ki of `C[C@]12COc3ccc(OCC4CCCCC4)cc3[C@H]1CCN2` is reported as 0.0015 µM (SIGMAR1 (Homo sapiens, UniProt Q99720); cell-free assay, radioligand).
With `CC[C@H](C)[C@H](NC(=O)CN)C(=O)N[C@H](C(=O)N[C@@H](CC(N)=O)C(=O)N[C@H](C(=O)N[C@@H](CC(C)C)C(=O)N[C@@H](CCC(N)=O)C(=O)N[C@@H](CCC(N)=O)C(=O)N[C@@H](Cc1ccc(O)cc1)C(=O)N[C@@H](Cc1ccc(O)cc1)C(=O)N[C@H]1CSSC[C@@H]2NC(=O)[C@H](CCC(N)=O)NC(=O)[C@H](CCC(N)=O)NC(=O)CNC(=O)[C@H](CCC(N)=O)NC(=O)[C@H]([C@@H](C)O)NC(=O)[C@H](CO)NC(=O)[C@@H]3CSSC[C@H](NC(=O)[C@H](CCC(N)=O)NC(=O)CNC(=O)CNC(=O)[C@H](CCC(N)=O)NC(=O)[C@H](C(C)C)NC(=O)[C@H](CCC(N)=O)NC1=O)C(=O)N[C@@H](C)C(=O)N[C@@H](C(C)C)C(=O)N[C@@H](CC(C)C)C(=O)N[C@@H](CO)C(=O)N[C@@H](CSSC[C@@H](C(=O)N[C@@H](CCC(N)=O)C(=O)N[C@@H](CCC(N)=O)C(=O)N[C@@H](CCC(N)=O)C(=O)N[C@@H](CCC(N)=O)C(N)=O)NC2=O)C(=O)N[C@@H](CC(C)C)C(=O)N1CCC[C@H]1C(=O)N[C@@H](CCC(N)=O)C(=O)N[C@@H](CCC(=O)O)C(=O)N[C@@H](CCC(=O)O)C(=O)N[C@@H](CCC(N)=O)C(=O)N[C@@H]([C@@H](C)CC)C(=O)NCC(=O)N[C@@H](CCC(N)=O)C(=O)N3)[C@@H](C)O)[C@@H](C)CC` the Ki was greater than 5 µM (MC1R; HEK-293T transfected; 2 h, 37 °C, with: Eu-NDP-MSH).
`CCCCc1ccc2c(c1)sc(=O)n2CCCCCCN1CCCCCC1` gave a Ki of 0.012 ± 0.0007 µM (Sigmar1; binding, radioligand binding; rat liver membranes; with: [3H](+)-pentazocine 5 nM).
With `CCOC(=O)[C@](CC)(CCCSCCOCCOCCNC(=O)c1ccc(-c2c3ccc(=N)c(S(=O)(=O)O)c-3oc3c(S(=O)(=O)O)c(N)ccc23)c(C(=O)O)c1)NC(=O)c1ccc(C2CC2)c(Cc2ccc(F)cc2)n1` the Ki was greater than 10 µM (Cnr1; ligand displacement, radioligand; cell membranes).
For `CCCc1ccc2c(c1)sc(=O)n2CCCN1CCCCCC1`, the Ki was 0.0014 ± 0.0001 µM (Sigmar1; binding, radioligand binding; rat liver membranes; with: [3H](+)-pentazocine 5 nM).
`CC(=O)N[C@@H](CCCNC(=N)N)C(=O)N[C@@H](Cc1ccc(O)cc1)C(=O)N[C@@H](CCCNC(=N)NC(=O)NCCCCN)C(=O)N[C@H](CC(C)C)C(=O)N[C@@H](CCCNC(=N)N)C(=O)N[C@@H](Cc1ccc(O)cc1)C(N)=O` has a Ki of greater than 5 µM (NPY5R; ligand displacement, radioligand).
`COC(=O)C1C(OC(c2ccc(Cl)cc2)c2ccc(Cl)cc2)CC2CCC1N2C` (single isomer, unassigned) gave a Ki of 0.234 µM (Sigma-2 receptor/TMEM97 (Cavia porcellus, UniProt H0V073); radioligand binding; racemate, with: [3H]DTG, (+)-pentazocine mask).
The Ki of `Cc1nc(-c2ccc(Cl)cc2)nc2sc3c(=O)n(CCN4CCOCC4)cnc3c12` is reported as 0.3 µM (ache; enzyme activity, inhibitor).
For `CC(C)[C@H](NC(=O)c1ccc(CCc2nc3c(c(=O)[nH]2)CCC3)cc1)C(=O)NC1CNC1`, the Ki was 0.042 µM and 0.0419 µM (Collagenase 3 (MMP13, Homo sapiens, UniProt P45452); enzyme activity, inhibitor).
`CC(=O)N(C)[C@@H](Cc1ccccc1)C(=O)N[C@@H](Cc1ccccc1)C(=O)N[C@@H](Cc1c[nH]c2ccccc12)C(=O)N[C@@H](CCCNC(=N)N)C(=O)N[C@@H](CC(C)C)C(=O)N[C@@H](CCCNC(=N)N)C(=O)N[C@@H](CCCNC(=N)N)C(=O)N[C@H](C)C(=O)N[C@@H](CCCNC(=N)N)C(=O)N1CCC[C@H]1C(=O)N[C@@H](CCCCN)C(N)=O` gave a Ki of 0.013 µM (Oprk1; ligand displacement, radioligand).
The Ki of `C=Cc1cc(OC)c2c(c1)c(=O)oc1c2cc(OC)c2c(O)ccc([C@@H]3O[C@H](C)[C@H](O)[C@@](C)(O)[C@H]3O)c21` is reported as 9.13 ± 0.13 µM (2,3,4,5-tetrahydropyridine-2,6-dicarboxylate N-acetyltransferase (dapH, Staphylococcus aureus, UniProt A6QGU8); enzyme activity, inhibitor, Lineweaver-Burk; with: acetyl-CoA varied).
For `NC(=S)N/N=C/c1ccc(OCc2cccc(F)c2)cc1`, the Ki was 0.074 µM (MAOB (Homo sapiens, UniProt P27338); enzyme activity, inhibitor).
`CC[C@H](C)[C@H](NC(=O)CN)C(=O)N[C@H](C(=O)N[C@@H](CC(N)=O)C(=O)N[C@H](C(=O)N[C@@H](CC(C)C)C(=O)N[C@@H](CCC(N)=O)C(=O)N[C@@H](CCCCN)C(=O)N[C@@H](Cc1ccc(O)cc1)C(=O)N[C@@H](Cc1ccc(O)cc1)C(=O)N[C@H]1CSSC[C@@H]2NC(=O)[C@H](CCCCN)NC(=O)[C@H](CCCNC(=N)N)NC(=O)CNC(=O)[C@H](CCCNC(=N)N)NC(=O)[C@H]([C@@H](C)O)NC(=O)[C@H](CO)NC(=O)[C@@H]3CSSC[C@H](NC(=O)[C@H](CCC(N)=O)NC(=O)CNC(=O)CNC(=O)[C@H](CCC(N)=O)NC(=O)[C@H](C(C)C)NC(=O)[C@H](CCCNC(=N)N)NC1=O)C(=O)N[C@@H](C)C(=O)N[C@@H](C(C)C)C(=O)N[C@@H](CC(C)C)C(=O)N[C@@H](CO)C(=O)N[C@@H](CSSC[C@@H](C(=O)N[C@@H](CCCNC(=N)N)C(=O)N[C@@H](CCCNC(=N)N)C(=O)N[C@@H](CCCCN)C(=O)N[C@@H](CCCCN)C(N)=O)NC2=O)C(=O)N[C@@H](CC(C)C)C(=O)N1CCC[C@H]1C(=O)N[C@@H](CCC(N)=O)C(=O)N[C@@H](CCC(=O)O)C(=O)N[C@@H](CCC(=O)O)C(=O)N[C@@H](CCC(N)=O)C(=O)N[C@@H]([C@@H](C)CC)C(=O)NCC(=O)N[C@@H](CCCCN)C(=O)N3)[C@@H](C)O)[C@@H](C)CC` gave a Ki of 0.137 µM (MC1R; ligand displacement in cells).
The Ki of `CNC(=O)C1CCN(c2ccccc2NC(=O)c2ccc(-c3cc(O)ccc3C)c(C)n2)CC1` is reported as 0.004 µM (TXK (Homo sapiens, UniProt P42681); cell-free assay, TR-FRET).
For `CC(C)(C)c1cc(B(O)O)cc(C(C)(C)C)c1`, the Ki was 3.2 µM (ampC; enzyme activity, inhibitor; with: CENTA).
With `CCC(=O)c1ccc2c(c1)sc(=O)n2CCN1CCCC1` the Ki was 0.116 ± 0.015 µM (Sigmar1; binding, radioligand binding; rat liver membranes; with: [3H](+)-pentazocine 5 nM).
With `CC(=O)N[C@@H](CCCNC(=N)N)C(=O)N[C@@H](Cc1ccc(O)cc1)C(=O)N[C@@H](CCCNC(=N)NC(=O)NCCCCN)C(=O)N[C@@H](CC(C)C)C(=O)N[C@@H](CCCNC(=N)N)C(=O)N[C@@H](Cc1ccc(O)cc1)C(=O)O` the Ki was greater than 5 µM (NPY5R; ligand displacement, radioligand).
The Ki of `CC(=O)N(C)[C@@H](Cc1ccccc1)C(=O)N[C@@H](Cc1ccccc1)C(=O)N[C@@H](Cc1ccc2ccccc2c1)C(=O)N[C@@H](CCCNC(=N)N)C(=O)N[C@@H](CC(C)C)C(=O)N[C@@H](CCCNC(=N)N)C(=O)N[C@@H](CCCNC(=N)N)C(=O)N[C@H](C)C(=O)N[C@@H](CCCNC(=N)N)C(=O)N1CCC[C@H]1C(=O)N[C@@H](CCCCN)C(N)=O` is reported as 0.027 µM (Oprk1; ligand displacement, radioligand).
With `CC[C@H](C)[C@H](NC(=O)[C@@H]1CSSC[C@H](NC(=O)[C@H](Cc2ccc(O)cc2)NC(=O)CNC(C)=O)C(=O)N[C@@H](CO)C(=O)N[C@@H](CCCNC(=N)N)C(=O)N[C@@H](CO)C(=O)N[C@@H](Cc2ccc(O)cc2)C(=O)N2CCC[C@H]2C(=O)N2CCC[C@H]2C(=O)N[C@@H](C(C)C)C(=O)N1)C(=O)N1CCC[C@H]1C(=O)N[C@@H](CC(=O)O)C(N)=O` the Ki was 0.07 µM (Mannan-binding lectin serine protease 2 (Homo sapiens, UniProt O00187); enzyme activity, inhibitor).
The Ki of `COc1ccc2[nH]cc(CCNS(=O)(=O)CCc3cn(-c4cnc5ccccc5c4)nn3)c2c1` is reported as 0.022 µM (ache; enzyme activity, inhibitor).
`N=C(N)NCCC[C@H](NC(=O)[C@H](Cc1c[nH]c2ccccc12)NC(=O)[C@H](CCCCN)NC(=O)CNC(=O)CCC(=O)NN=Cc1cc(C=NNC(=O)CCC(=O)NCC(=O)N[C@@H](CCCCN)C(=O)N[C@@H](Cc2c[nH]c3ccccc23)C(=O)N[C@@H](CCCNC(=N)N)C(N)=O)cc(C=NNC(=O)CCC(=O)NCC(=O)N[C@@H](CCCCN)C(=O)N[C@@H](Cc2c[nH]c3ccccc23)C(=O)N[C@@H](CCCNC(=N)N)C(N)=O)c1)C(N)=O` has a Ki of 0.012 µM and 0.0125 µM (Tryptase beta-2 (TPSB2, Homo sapiens, UniProt P20231); non-competitive inhibitor).
`Cc1cc2c(cc1Cl)Cc1c(C(=O)NC3C4(C)CCC(C4)C3(C)C)nn(-c3ccc(Cl)cc3Cl)c1-2` (centres unmarked) gave a Ki of 4.5 µM (Cnr1; binding, radioligand displacement; mouse brain homogenate without cerebellum; with: [3H]CP-55,940).
For `O=C1OC(=O)C2C3C=CC(C3)C12` (centres unmarked), the Ki was 1900 µM (ampC).

Excerpt of the above:
The Ki of `CNC(=O)C1CCN(c2ccccc2NC(=O)c2ccc(-c3cc(O)ccc3C)c(C)n2)CC1` is reported as 0.004 µM (TXK (Homo sapiens, UniProt P42681); cell-free assay, TR-FRET).
For `CC(C)(C)c1cc(B(O)O)cc(C(C)(C)C)c1`, the Ki was 3.2 µM (ampC; enzyme activity, inhibitor; with: CENTA).
With `CCC(=O)c1ccc2c(c1)sc(=O)n2CCN1CCCC1` the Ki was 0.116 ± 0.015 µM (Sigmar1; binding, radioligand binding; rat liver membranes; with: [3H](+)-pentazocine 5 nM).
